Assay results gathered from unrelated publications.
Lines come from different studies, so protocols differ. Values joined by “and” are separate records of one study, mostly repeats; a detail may differ. ± marks the error that the study gave.

SMILES | test | test system | conditions | how to read | quantity | value
Cc1cn(-c2cc(NC(=O)c3ccc(C)c(Nc4nccc(-c5cccnc5)n4)c3)cc(C(F)(F)F)c2)cn1 | item: NPI caregiver distress score | human | dose not given, 6 months versus baseline, unit not given | relative to: placebo | mean difference in change | 1
CCCCC1(CCCC)CN(c2ccccc2)c2cc(SC)c(OCC(=O)N[C@@H](C(=O)NCC(=O)O)c3ccccc3)cc2S(=O)(=O)C1 | item: LDL cholesterol | human, serum | 10 mg once daily, day 5 |  | serum LDL-C | 95.1 mg/dL
CCCCCCCCCCCCCCCC(=O)N[C@H]1C[C@@H](O)[C@@H](O)NC(=O)[C@@H]2[C@@H](O)[C@@H](C)CN2C(=O)[C@H]([C@@H](C)O)NC(=O)[C@H]([C@H](O)[C@@H](O)c2ccc(O)cc2)NC(=O)[C@@H]2C[C@@H](O)CN2C(=O)[C@H]([C@@H](C)O)NC1=O | calcein leakage | DOPC/DOPG/CHOL liposomes | concentration not given, together with: 40 mM CaCl2 |  | maximum fusion | 10 ± 6%
CC[C@H](C)[C@H](NC(=O)[C@H](CCC(=O)O)NC(=O)[C@H](CCCNC(=N)N)NC(=O)[C@H](CCCNC(=N)N)NC(=O)[C@H](CCCNC(=N)N)NC(=O)[C@H](CCC(N)=O)NC(=O)[C@H](CCCNC(=N)N)NC(=O)[C@H](CCCNC(=N)N)NC(=O)[C@H](CCCCN)NC(=O)[C@H](CCCCN)NC(=O)[C@H](CCCNC(=N)N)NC(=O)CNC(=O)[C@H](Cc1ccc(O)cc1)NC(C)=O)C(=O)N[C@@H](CC(=O)O)C(=O)N[C@@H](Cc1c[nH]cn1)C(=O)N[C@@H](CC(=O)O)C(N)=O | immunoblot, item: phospho-RIPK1, caspase-8, IL-1β, IL-18, IL-6 | db/db mouse, hippocampus | intravenous, dose not given, 6 weeks, weekly |  | protein level | decreased
C[C@H](NC(=O)c1c(C(F)F)nn(C)c1Oc1cccc(C(F)(F)F)c1)c1ccc(C(=O)O)cc1 |  | human, advanced tumours | 250 mg |  | median overall survival | 4 months
CCN(Cc1nc2c(N)nc3cc(-c4cc[nH]n4)ccc3c2[nH]1)C(C)=O | Kaplan-Meier | human advanced solid tumours | dose not given |  | median overall survival | 5.2 months
C[C@]12CC[C@H](O)C[C@H]1CC[C@@H]1[C@@H]2CC[C@]2(C)[C@@H](c3ccc(=O)oc3)CC[C@]12O |  | female nude mouse LCC2 xenograft | 1.0 mg/kg, day 5, tamoxifen-resistant |  | tumour volume | 25.3 mm3 and 37.4 mm3 and 48.4 mm3 and 56 mm3 and 32.6 mm3 and 28.6 mm3 and 29.1 mm3
CN1CCN(S(=O)(=O)c2cc([N+](=O)[O-])ccc2N(CCOS(C)(=O)=O)CCOS(C)(=O)=O)CC1 |  | NSG mice, sample DC PDX | intraperitoneal, 25 mg/kg weekly x3 | relative to: treated over vehicle | EFS ratio (T/C) | > 8.6
CC(=O)c1c(C)c2cnc(Nc3ccc(C4CCN(CCS(C)(=O)=O)CC4)cn3)nc2n(C2CCCC2)c1=O | RECIST v1.1 | HR+/HER2- advanced breast cancer patients | dose not given, phase Ib all arms pooled |  | best response progressive disease | 9.9%
CC(C)C1CCC(N2CCC(N3C(=O)C(=O)c4ccccc43)CC2)CC1 (stereo not drawn) |  | conscious Sprague-Dawley rat | intravenous bolus, 100 nmol/kg |  | peak decrease in mean arterial pressure | -38 ± 3 mmHg
CN(C)C1(CNC(=O)c2ccc3c(c2)CCN3C(=O)c2ccccc2)CCOCC1 | acetone test | mice, chronic constriction injury | intraperitoneal, 100 mg/kg, 2 h |  | reduction of cold allodynia | 62%
Cc1nc(Nc2ccc(CC(=O)O)cc2)nc(Nc2ccc(F)c(C(F)(F)F)c2)c1C |  | C57BL/6J mouse, high-fat diet MASH model, white adipose tissue | intraperitoneal, 0.3 mg/kg daily, 60% fat diet for 12 weeks, dosed final four weeks | relative to: untreated | adipocyte diameter | decreased
CCCc1nn(C)c2c(=O)[nH]c(-c3cc(S(=O)(=O)N4CCN(C)CC4)ccc3OCC)nc12 |  | human patients on drug, serum or plasma | dose not given, main analysis, matching 1:20 | relative to: off-drug patients, 5.94 mg/dL | mean serum uric acid | 6.84 mg/dL
Cn1cnc(CCN)c1 | binding, equilibrium dialysis LC-MS |  | 5 µM, thermostabilized A2AR-BRIL construct | relative to: no-protein control, direction not given | z-scored log2 fold change | -0.144
CNC(=O)c1c(C)oc2cc(Oc3ccnc4cc(OCCN5CCOCC5)ccc34)ccc12 | DCE-MRI | patients | dose not given, twice daily dosing |  | patients with vascular response | 83%
[131I-].[Na+] |  | paediatric patients, differentiated thyroid carcinoma, intermediate risk | dose not given, retrospective |  | lymph nodal recurrence | 9.1%
CC(C)CCCCCCCCC[C@@H]1CC(=O)N[C@@H](CCC(=O)O)C(=O)N[C@@H](CC(C)C)C(=O)N[C@H](CC(C)C)C(=O)N[C@@H](C(C)C)C(=O)N[C@@H](CC(=O)O)C(=O)N[C@H](CC(C)C)C(=O)N[C@@H](CC(C)C)C(=O)O1 | calcein leakage | DOPC/DOPG/CHOL liposomes | concentration not given, together with: 40 mM CaCl2 |  | maximum fusion | 86 ± 5%
C[C@H]1O[C@@H](O[C@H]2CC[C@@]3(C)[C@@H](CC[C@]4(C)[C@@H]3C=C[C@]35OC[C@@]6(CCC(C)(C)C[C@H]63)[C@@H](O)C[C@]54C)[C@]2(C)CO)[C@H](O)[C@@H](O[C@@H]2O[C@H](CO)[C@@H](O)[C@H](O)[C@H]2O)[C@H]1O | Western blot, item: PPAR-α | mouse, AAV8-TBG-Null control vector, liver | dose not given, high dose, unit not given, together with: ethanol | relative to: β-actin | protein level | 0.952 and 0.52 and 0.551
CC[C@H](C)[C@@H]1NC(=O)[C@@H]2CCCN2C(=O)[C@H](CC(C)C)NC(=O)[C@H](CC(C)C)NC(=O)CNC(=O)[C@@H](NC(=O)[C@@H](NC(=O)[C@H](CC(=O)O)NC(=O)CNC(=O)[C@@H](NC(=O)[C@H](C)NC(=O)CNC(=O)[C@H](CCCCN)NC(=O)[C@H](CC(C)C)NC(=O)[C@H](CC(C)C)NC(=O)[C@H](CCCCN)NC(=O)CNC(=O)[C@@H](NC(=O)[C@@H](N)CC(C)C)C(C)C)C(C)C)C(C)C)CSSC[C@@H](C(=O)O)NC1=O | RNA-seq, item: Samd9l | mouse, traumatic brain injury model, frontal cortex and hippocampus | dose not given | relative to: TBI alone | log2 fold change | -1.08
Clc1cc2c(cc1Cl)Oc1cc(Cl)c(Cl)cc1O2 | RNA-Seq, item: Cyp4a1 | female Sprague-Dawley rat, liver | dose not given | relative to: vehicle | mRNA level | 2.3 fold
CS(=O)(=O)c1ccc(-c2nnc(/C=C/c3nnc(-c4ccc(C#N)cc4)o3)n2-c2ccccc2Cl)nc1 | RNA-seq GSEA, item: HALLMARK_MYC_TARGETS_V2 | organoids, small intestinal, Apc Q1405X, mouse | dose not given, wild-type organoids | relative to: DMSO, direction not given | normalized enrichment score | -1.88
